Assay results gathered from unrelated publications.
Parts stem from different laboratories: compare values within a part only. Substitutions count along the parent as printed.

Study 1 — method: universal PBM; form: double-stranded DNA, one strand shown; matrix: in vitro; tested at: not given; reading: higher = stronger binding; endpoint: E-score
Target: Sal-like protein 4, full length isoform B (SALL4, Homo sapiens, UniProt Q9UJQ4-2, residues 1-616)
Notes: 8-mer, flanks averaged, mean of replicates
Residues (chain): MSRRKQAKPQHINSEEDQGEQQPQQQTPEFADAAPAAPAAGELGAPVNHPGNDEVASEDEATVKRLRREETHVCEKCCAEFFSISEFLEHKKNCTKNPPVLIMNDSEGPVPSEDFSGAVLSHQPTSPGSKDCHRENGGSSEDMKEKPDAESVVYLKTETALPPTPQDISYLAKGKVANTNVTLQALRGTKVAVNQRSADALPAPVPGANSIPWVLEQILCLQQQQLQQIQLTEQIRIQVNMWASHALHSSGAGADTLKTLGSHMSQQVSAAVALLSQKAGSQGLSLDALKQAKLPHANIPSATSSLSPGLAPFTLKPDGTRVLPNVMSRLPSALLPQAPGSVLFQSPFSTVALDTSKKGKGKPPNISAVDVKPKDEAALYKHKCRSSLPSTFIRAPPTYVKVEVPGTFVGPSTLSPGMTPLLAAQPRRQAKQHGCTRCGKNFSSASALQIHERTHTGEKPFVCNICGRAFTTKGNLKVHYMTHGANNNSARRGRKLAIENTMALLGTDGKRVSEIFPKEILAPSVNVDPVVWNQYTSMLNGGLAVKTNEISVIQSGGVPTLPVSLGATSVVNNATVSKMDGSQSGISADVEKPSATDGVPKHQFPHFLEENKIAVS
CGTTTGCA: 0.067
CTATTCAG: 0.113
ACGGGGTG: -0.248
CCAACATA: 0.178
GTCTTCAC: -0.0887
AATCTACC: 0.127
AGCGTCGG: -0.116
AGCGCGGG: -0.298
GGAATAGA: 0.105
ATCCCGAA: -0.0172
AACTGGAG: -0.106
ACGAAACT: 0.0736
AGAACGGA: -0.0111
ATCAGTCG: 0.0342
AAAACCTC: 0.0629
AAGGTCTA: -0.024
ACGGCACG: -0.136
TAGCATCA: 0.0809
ACAATGGT: 0.104
CAATGTCA: 0.21
ATCGTAAC: 0.0893
ATGCTAAA: 0.159
ATCTTGTG: 0.0793
AACTGCTG: -0.135
CTGTCGTA: 0.0149

Study 2 — method: protein binding microarray; form: double-stranded DNA, one strand shown; matrix: in vitro; tested at: not given; reference: not given; reading: higher = stronger binding; endpoint: E-score
Target: Histone acetyltransferase KAT6A, winged helix 2, GST fusion (KAT6A, Homo sapiens, UniProt Q92794, residues 85-181)
Notes: 8-mer, flanks averaged, mean of 2 arrays, mostly near background
Residues (chain): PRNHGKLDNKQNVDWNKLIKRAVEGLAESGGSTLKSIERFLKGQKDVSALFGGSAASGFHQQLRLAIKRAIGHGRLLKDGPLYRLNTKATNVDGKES
GCCATAAC: -0.134
CAGAGACC: -0.126
ACCGGAGC: 0.144
GATTCGTA: 0.175
AGCCACAT: -0.0418
GTGGGCCA: 0.167
ACTCCACA: -0.00798
TCCCATCA: -0.16
ACAACACC: -0.0848
CCGGACTA: -0.0183
GTTGTCGA: -0.0933
TCCTCGCA: 0.0764
AAAATGTG: -0.104
CTAGTGTA: -0.212
AGATAGAG: -0.123
ATCTACAT: -0.0388
ATCGACGG: -0.167
ACGATACC: 0.0574
CGTTTGGC: 0.0449

Study 3 — target: CCND3, cyclin fold, Cln2 fusion (human); method: yeast growth competition, sequencing; matrix: yeast; notes: weak parent motif; reference: not given; reading: higher = stronger binding; endpoint: normalised enrichment score
Starting sequence: MICAL3 docking peptide (human); LQLRRQLSFSEDS; partner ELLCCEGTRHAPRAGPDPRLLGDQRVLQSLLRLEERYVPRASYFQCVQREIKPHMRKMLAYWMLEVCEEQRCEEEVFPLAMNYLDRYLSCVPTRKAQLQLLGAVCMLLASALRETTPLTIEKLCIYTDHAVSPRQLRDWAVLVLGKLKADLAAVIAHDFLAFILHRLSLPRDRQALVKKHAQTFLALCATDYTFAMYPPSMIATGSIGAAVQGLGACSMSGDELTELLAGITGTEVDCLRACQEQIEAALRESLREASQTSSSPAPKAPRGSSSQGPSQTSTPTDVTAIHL
LQMRRQLSFSEDS [L3M]: -0.266
LQLRRQLSFSKDS [E11K]: 0.555
LQLRQQLSFSEDS [R5Q]: 0.1
LQLRRQDSFSEDS [L7D]: -0.0918
LQLRRQNSFSEDS [L7N]: -0.182
LQLRRQLSFSEWS [D12W]: 0.189
LQLRRMLSFSEDS [Q6M]: 0.161
LQLRRQLSFSLDS [E11L]: 0.122
LQWRRQLSFSEDS [L3W]: 0.156
LQLRRQLMFSEDS [S8M]: -0.0746
LQLTRQLSFSEDS [R4T]: -0.528
LQLRGQLSFSEDS [R5G]: 0.019
LQNRRQLSFSEDS [L3N]: 0.157
LQLREQLSFSEDS [R5E]: 0.325
LQLRRQLSPSEDS [F9P]: -0.122
LQLRFQLSFSEDS [R5F]: -0.134
LQLFRQLSFSEDS [R4F]: 0.0708
LQLRRQLLFSEDS [S8L]: 0.342
LQLRRQLKFSEDS [S8K]: 0.209
LSLRRQLSFSEDS [Q2S]: 0.299
LQLRVQLSFSEDS [R5V]: -0.0283
LVLRRQLSFSEDS [Q2V]: 0.129
LQLRRSLSFSEDS [Q6S]: -0.0775

Study 4 — method: RNA Bind-n-Seq; form: RNA; matrix: in vitro; tested at: not given; reference: input RNA pool; reading: higher = stronger binding; endpoint: bound/input enrichment
Target: RING finger protein unkempt homolog, zinc fingers 1-6, GST-SBP tag (UNK, Homo sapiens, UniProt Q9C0B0, residues 30-357)
Notes: RNA with constant flanks, human and mouse sites, ends assumed
All sequences stand within: GGGAGUUCUACAGUCCGACGAUC … CAACAGAGGAUUGAGCAUCA
Construct (chain): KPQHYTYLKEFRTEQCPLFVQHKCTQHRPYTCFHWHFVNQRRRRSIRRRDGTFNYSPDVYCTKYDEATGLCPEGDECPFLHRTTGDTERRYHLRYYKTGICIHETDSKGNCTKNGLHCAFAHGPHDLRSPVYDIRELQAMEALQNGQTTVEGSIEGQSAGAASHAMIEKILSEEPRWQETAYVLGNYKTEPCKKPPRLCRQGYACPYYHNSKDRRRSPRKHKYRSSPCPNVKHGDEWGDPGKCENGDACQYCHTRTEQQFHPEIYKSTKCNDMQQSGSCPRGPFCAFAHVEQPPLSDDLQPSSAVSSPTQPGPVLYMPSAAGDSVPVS
AAUCUUAAUUUUAAAGUGAAAGAGGAGCCUAAGGAAGGGGAGUCCCUAAGCACGACUUUGCCUCGGUCCAGCUAUGUGUUCAGCCCGGAAUCUGAAGUGUCAGCCCCAGGCGUCUCUGAG: 0.121 ratio
AAUGACUUCCUUCAUGGCCAAGUUGGGGAUGAGCUGUUCCUGGGUCAGAGGGCUCCGGGUCACAGGGUCAAAGUGGCCCACACGCUGCAACAGAGUCAAGAGUGUUCAAUGGCCUGAGUA: 0.172 ratio
UGAGACUGUAGUUGGGUGUCCCGGGUGCCCAUGGACUGCUUGAUGCUGCUUAACUCUUCAUUUAGAUAACUUUCUAGUGACAGCUUCUUCCAGUGGUGACAAAAUAGUGGUGUCAAGUUG: 1.13 ratio
AGCGAGGCCCCCAAUCCAGAGCCCCGGGCCAGGUCAAGAUCCACCUCCAAAUCCAAACCCAAUGUCCCGGCAGAGUCGCGCUCCAGGUCAAAAUCGGCUUCAAAAACACGCUCUCGGUCC: 0.109 ratio
AAGCUGCUGUGCGGCCUGCUGGCCGAGCGCCUGCGCAUCAGCCCGGACAGGGUCUACAUCAACUAUUACGACAUGAACGCGGCCAAUGUGGGCUGGAACAACUCCACCUUCGCCUAAGAG: 0.126 ratio
CUUCUCAUGACCAACUGUAUCAAGAAUGAUCUUAAUCAUAGCACGCAAUUCGUACAGGGGUUAGCACUUUGUACCCUCGGCUGCAUGGGCUCCUCAGAGAUGUGCAGAGAUCUUGCAGGA: 0.238 ratio
CCACAGCCCUUAUUACAGCAGCCUCAGCAAAAAGCUGGUUUAUUGCAGCCUCCUGUUCGUAUAGUUUCACAGCCACAACCGGCACGACGAUUAGAUCCCCCAUCCCGAUUUUCAGGAAGA: 1.24 ratio
UUCUAUGACCCUGACACCAGCAUCAUUUACUUAUGUGGAAAGGGUGACAGCAGUAUUCGCUAUUUUGAGAUCACGGAUGAAUCCCCGUACGUCCACUACCUCAACACAUUCAGCAGCAAG: 0.175 ratio
AAGAAAAAGAAAAUGCCGAAGCCAAUCAAUGUAAGAGUAACUACAAUGGACGCUGAGCUAGAAUUUGCCAUCCAGCCCAAUACAACUGGCAAACAACUUUUUGACCAGGUUGUAAAAACA: 0.354 ratio
UAUCUGGACAAGGCACCCCCACCAGGCUUGCCAGCCGAAACGAUCAAGGAUCUGAUGCGCCAGUUUCUAAGAGGCCUAGAUUUCCUUCAUGCCAAUUGCAUCGUUCACCGAGAUCUGAAG: 0.0826 ratio
CCAGGCCAAGACCAUGUUGACGUGAGCAUCCAGCUCCUCUUAAAAAGCGGCAGUGUCUUCCUCACCUCCCACCAGUAUCCCUUCUAUGACUGCCGUGAGGCCAUGAGCCUGGUGGAGAAC: 0.281 ratio

Study 5 — target: CREB3L2, bZIP domain (human); method: DHFR protein complementation; matrix: yeast; reference: wild-type JUN-FOS pair; reading: higher = stronger binding; endpoint: binding fitness
Notes: single substitutions, most at no-binding floor
Starting sequence: JUN, bZIP domain (human); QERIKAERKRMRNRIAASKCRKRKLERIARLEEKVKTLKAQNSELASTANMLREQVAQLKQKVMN; partner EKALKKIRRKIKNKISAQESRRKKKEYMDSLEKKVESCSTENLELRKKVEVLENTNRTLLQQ
L52N: -1.46 natural log
S43V: -1.46 natural log
A29S: -1.3 natural log
T37V: -1.41 natural log
V35E: -1.53 natural log
Q55P: -1.56 natural log
A29K: -1.11 natural log
K39A: -1.41 natural log
A40L: -1.36 natural log
T37A: -1.36 natural log
R30W: -1.37 natural log
L59W: -1.54 natural log
L31H: -1.38 natural log
A57N: -1.35 natural log
M51F: -1.34 natural log
L52V: -1.46 natural log
T48K: -1.29 natural log
K39N: -1.48 natural log
L38Q: -1.49 natural log
M51S: -1.4 natural log
A40P: -1.55 natural log
L38F: -1.55 natural log
A29P: -1.52 natural log
A29D: -1.47 natural log
T48A: -1.48 natural log

Study 6 — target: UBE2C UBC core domain (UniProt O00762); method: yeast two-hybrid; matrix: yeast; notes: mostly zero background; reference: not given; reading: higher = stronger interaction; endpoint: lacZ reporter activity
B1: RFPL3 RING domain (UniProt O75679); chain MAALFQEASSCPVCSDYLEKPMSLECGCTVCLKCINSLQKEPHGEDLLCCCCSMVSQRNKIRP
B2: TRIM68 RING domain (UniProt Q6AZZ1); chain LVEAIVEEVACPICMTFLREPMSIDCGHSFCHSCLSGLWEIPGESQNWGYTCPLCRAPVQPRNLRP
B3: ARIH1 RING domain (UniProt Q9Y4X5); chain NTRSSAQDMPCQICYLNYPNSYFTGLECGHKFCMQCWSEYLTTKIMEEGMGQTISCPAHGCDILVDDNTVM
B4: TRIM74 RING domain (UniProt Q86UV6); chain SLLELEDWLQCPICLEVFKESLMLQCGHSYCKGCLVSLSYHLDTKVRCPMCWQVVDGSSSLP
B5: RNF32 RING domain (UniProt Q9H0A6); chain VQALRRETHECSICLAPLSAAGGQRVGAGRRSREMALLSCSHVFHHACLLALEEFSVGDRPPFHACPLCRSCYQKKILEC
Construct (chain): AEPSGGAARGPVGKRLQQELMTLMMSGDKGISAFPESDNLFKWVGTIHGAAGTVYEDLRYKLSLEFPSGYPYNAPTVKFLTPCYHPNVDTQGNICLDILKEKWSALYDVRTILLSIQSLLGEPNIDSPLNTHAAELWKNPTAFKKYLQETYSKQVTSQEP
B1 (RFPL3 RING domain): 0
VPADASPDSKCPICLDRFDNVSYLDRCLHKFCFRCVQEWSKNKAECPLCKQPFDSIFHSV (TOPORS RING domain (UniProt Q9NS56)): 0
FLSKVEETFQCICCQELVFRPITTVCQHNVCKDCLDRSFRAQVFSCPACRYDLGRSYAMQ (UHRF1 RING domain (UniProt Q96T88)): 0
EIKDYKARLTCPCCNMRKKDAVLTKCFHVFCFECVKTRYDTRQRKCPKCNAAFGANDFHR (RNF20 RING domain (UniProt Q5VTR2)): 0
AAQLLEEKLTCAICLGLYQDPVTLPCGHNFCGACIRDWWDRCGKACPECREPFPDGAELR (TRIM65 RING domain (UniProt Q6PJ69)): 0
B2 (TRIM68 RING domain): 0
MEEMEEELKCPVCGSFYREPIILPCSHNLCQACARNILVQTPESESPQSHRAAGSGVSDY (TRIM9 RING domain (UniProt Q9C026)): 0
KITELNPHLMCALCGGYFIDATTIVECLHSFCKTCIVRYLETNKYCPMCDVQVHKTRPLL (PCGF2 RING domain (UniProt P35227)): 0
B3 (ARIH1 RING domain): 0
B4 (TRIM74 RING domain): 0
B5 (RNF32 RING domain): 0

Some of these lines once more (study 5):
A40P: -1.55 natural log
V35E: -1.53 natural log
L31H: -1.38 natural log
A29S: -1.3 natural log
L59W: -1.54 natural log
S43V: -1.46 natural log
T48K: -1.29 natural log
M51S: -1.4 natural log
Q55P: -1.56 natural log
T37A: -1.36 natural log
K39A: -1.41 natural log
M51F: -1.34 natural log
T48A: -1.48 natural log
L52N: -1.46 natural log
A29P: -1.52 natural log
